Measured values from different studies.
A part holds a random share of what one study measured. Positions count from the first letter of the parent shown.

Study 1 — technique: competition protein-binding microarray; form: double-stranded DNA, one strand shown; medium: in vitro; concentration: 2 µM; together with: Cbf1 competitor, 0.05 µM; direction: higher = stronger binding; constant ends, left off below: … GTCTTGATTCGCTTGACGCTGCTG
Target: Phosphate system positive regulatory protein PHO4, full length, GST-tagged (PHO4, Saccharomyces cerevisiae, UniProt P07270, residues 1-312)
Setting: whole 60-bp probe, lowest competitor level
Residues (chain): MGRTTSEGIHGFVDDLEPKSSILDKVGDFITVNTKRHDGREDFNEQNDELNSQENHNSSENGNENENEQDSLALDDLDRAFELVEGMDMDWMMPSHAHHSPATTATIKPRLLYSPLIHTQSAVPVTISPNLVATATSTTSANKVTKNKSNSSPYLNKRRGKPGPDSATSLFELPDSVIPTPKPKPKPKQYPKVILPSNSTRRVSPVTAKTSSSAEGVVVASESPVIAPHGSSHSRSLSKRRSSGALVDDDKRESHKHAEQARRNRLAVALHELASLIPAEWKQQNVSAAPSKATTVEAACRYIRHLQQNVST
For `CATACCCAACCTTGTCTCGTGGGTGAAGATATTTGT`, the fluorescence intensity was 10700 a.u.
`CGGGGTTAAGTTTGTTGTGTGGGTGGCTTGCAGCAG` has a fluorescence intensity of 4780 a.u.
With `GATTCCTCATCTCGTCAGGTGATATTTGCATTCTAT` the fluorescence intensity was 3800 a.u.
`GAATTTTGCAAATCCAACGTGGCCGGTTGACCAGTA` has a fluorescence intensity of 11100 a.u.
`AAAGCGGTAATTTGTCACTCTACTTCACATATCTAT` has a fluorescence intensity of 2980 a.u.
`GAAGGTGCCTCTTCCCACATGGCCGAGCCCTCGCCG` gave a fluorescence intensity of 8140 a.u.
For `ATTAAATAGAAATATCACATGGCGATCCACTGAATG`, the fluorescence intensity was 9790 a.u.
`CCGGGGACGACGCTCCTCGTGCTTTCTTCCCATCTA` gave a fluorescence intensity of 12300 a.u.

Study 2 — target: CCNF, cyclin fold, Cln2 fusion (human); technique: yeast growth competition, sequencing; medium: yeast; setting: strong parent motif; reference: not given; direction: higher = stronger binding
Starting sequence: viral docking peptide; KGVKRKLFAEDSS; partner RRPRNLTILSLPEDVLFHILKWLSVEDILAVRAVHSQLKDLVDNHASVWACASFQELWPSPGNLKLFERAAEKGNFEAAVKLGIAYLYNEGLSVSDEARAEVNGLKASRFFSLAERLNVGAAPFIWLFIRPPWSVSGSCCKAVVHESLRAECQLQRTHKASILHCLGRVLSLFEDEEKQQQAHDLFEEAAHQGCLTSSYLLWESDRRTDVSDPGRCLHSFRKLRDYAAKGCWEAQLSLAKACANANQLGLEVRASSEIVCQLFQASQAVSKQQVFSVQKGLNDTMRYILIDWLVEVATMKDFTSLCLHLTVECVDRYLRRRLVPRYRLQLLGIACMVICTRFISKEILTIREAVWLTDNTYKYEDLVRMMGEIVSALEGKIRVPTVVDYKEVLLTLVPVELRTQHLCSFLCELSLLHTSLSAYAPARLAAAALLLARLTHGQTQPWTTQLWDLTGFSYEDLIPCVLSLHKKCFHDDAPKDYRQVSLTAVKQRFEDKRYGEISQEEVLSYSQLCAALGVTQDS
For `E10H`, “normalised enrichment score” read 7.62.
`V3K` — result for “normalised enrichment score”: 1.41.
Under “normalised enrichment score”, `D11T` is recorded as 7.98.
For `K6T`, “normalised enrichment score” read 6.98.
Under “normalised enrichment score”, `V3R` is recorded as 1.18.
`G2F` — result for “normalised enrichment score”: 8.26.
For `S12A`, “normalised enrichment score” read 8.34.
Under “normalised enrichment score”, `S12T` is recorded as 7.99.
`K6P` — result for “normalised enrichment score”: 4.72.
`R5I` — result for “normalised enrichment score”: 1.01.
For `R5G`, “normalised enrichment score” read -0.00133.
Under “normalised enrichment score”, `R5V` is recorded as 1.73.
For `R5A`, “normalised enrichment score” read 0.859.
For `L7C`, “normalised enrichment score” read 0.88.
`S12N`: “normalised enrichment score” 8.06.
`F8V`: “normalised enrichment score” 0.893.
Under “normalised enrichment score”, `F8W` is recorded as 5.14.
For `A9P`, “normalised enrichment score” read 8.35.

Study 3 — technique: universal PBM; form: double-stranded DNA, one strand shown; medium: in vitro; concentration: not given; direction: higher = stronger binding
Target: Sal-like protein 4, full length isoform B (SALL4, Homo sapiens, UniProt Q9UJQ4-2, residues 1-616)
Setting: 8-mer, flanks averaged, mean of replicates
Construct (chain): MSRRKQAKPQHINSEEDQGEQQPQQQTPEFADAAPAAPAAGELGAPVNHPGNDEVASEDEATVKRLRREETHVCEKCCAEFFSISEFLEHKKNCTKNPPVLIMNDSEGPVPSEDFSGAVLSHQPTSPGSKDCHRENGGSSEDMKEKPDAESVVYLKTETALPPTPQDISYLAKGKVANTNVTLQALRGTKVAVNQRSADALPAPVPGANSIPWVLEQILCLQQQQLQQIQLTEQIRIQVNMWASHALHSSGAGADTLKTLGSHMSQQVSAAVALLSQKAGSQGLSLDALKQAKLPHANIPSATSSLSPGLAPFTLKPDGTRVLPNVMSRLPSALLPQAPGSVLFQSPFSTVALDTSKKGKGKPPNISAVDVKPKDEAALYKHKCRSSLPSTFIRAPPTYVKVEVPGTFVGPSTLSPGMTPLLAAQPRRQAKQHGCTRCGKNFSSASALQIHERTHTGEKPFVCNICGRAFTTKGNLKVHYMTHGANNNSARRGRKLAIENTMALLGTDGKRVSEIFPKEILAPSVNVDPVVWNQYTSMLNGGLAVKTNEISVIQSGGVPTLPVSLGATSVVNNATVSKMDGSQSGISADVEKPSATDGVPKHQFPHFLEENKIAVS
For `ACTTCCGG`, the E-score was -0.124.
With `AGTGAGGC` the E-score was -0.221.
For `GGTAGTCA`, the E-score was -0.133.
For `ACCACCTG`, the E-score was -0.236.
The E-score of `GAGTCCCA` is reported as -0.194.
The E-score of `CGATAACA` is reported as 0.119.
`GGAGCCGA` has an E-score of -0.349.
The E-score of `ATAACTAA` is reported as 0.347.

Study 4 — target: vanadate, free oxyanion; technique: microfluidic competitive inhibition; medium: in vitro, cell-free expressed; concentration: not given; direction: lower = stronger binding
Setting: derived from inhibition constants, unchanged parent 676 nM
Starting sequence: PafA, mature enzyme, eGFP fusion (Elizabethkingia meningoseptica, UniProt Q9KJX5); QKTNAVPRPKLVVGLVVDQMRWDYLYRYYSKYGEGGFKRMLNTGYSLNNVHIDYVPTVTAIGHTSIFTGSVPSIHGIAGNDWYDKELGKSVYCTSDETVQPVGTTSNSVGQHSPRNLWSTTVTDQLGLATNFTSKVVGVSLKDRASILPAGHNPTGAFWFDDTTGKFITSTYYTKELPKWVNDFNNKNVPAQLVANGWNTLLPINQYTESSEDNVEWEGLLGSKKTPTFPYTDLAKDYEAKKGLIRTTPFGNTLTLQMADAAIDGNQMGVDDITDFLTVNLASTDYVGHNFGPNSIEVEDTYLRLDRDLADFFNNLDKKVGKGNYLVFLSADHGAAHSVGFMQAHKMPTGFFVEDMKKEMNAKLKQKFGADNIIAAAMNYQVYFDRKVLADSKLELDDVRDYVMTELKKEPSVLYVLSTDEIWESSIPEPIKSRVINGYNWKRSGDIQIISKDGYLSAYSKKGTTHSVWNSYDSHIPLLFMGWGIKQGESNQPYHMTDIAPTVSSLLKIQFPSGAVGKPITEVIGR
`Y32V`: “oxyanion analog dissociation constant” 705 nM.
Under “oxyanion analog dissociation constant”, `I77V` is recorded as 848 nM.
`I168V`: “oxyanion analog dissociation constant” 609 nM.
Under “oxyanion analog dissociation constant”, `S451G` is recorded as 755 nM.
`M347G`: “oxyanion analog dissociation constant” 700 nM.
For `F312V`, “oxyanion analog dissociation constant” read 648 nM.
For `A362G`, “oxyanion analog dissociation constant” read 626 nM.
`L244G`: “oxyanion analog dissociation constant” 744 nM.
Under “oxyanion analog dissociation constant”, `L15V` is recorded as 1.01 µM.
For `N491V`, “oxyanion analog dissociation constant” read 540 nM.
For `A390V`, “oxyanion analog dissociation constant” read 872 nM.
`Q381V` — result for “oxyanion analog dissociation constant”: 970 nM.
Under “oxyanion analog dissociation constant”, `E34G` is recorded as 740 nM.
Under “oxyanion analog dissociation constant”, `V17A` is recorded as 636 nM.
Under “oxyanion analog dissociation constant”, `S119V` is recorded as 608 nM.
`Y380G` — result for “oxyanion analog dissociation constant”: 680 nM.
For `D311G`, “oxyanion analog dissociation constant” read 588 nM.
`M356G`: “oxyanion analog dissociation constant” 668 nM.
Under “oxyanion analog dissociation constant”, `F276V` is recorded as 519 nM.
Under “oxyanion analog dissociation constant”, `K242V` is recorded as 589 nM.
`F229V`: “oxyanion analog dissociation constant” 808 nM.
For `V91G`, “oxyanion analog dissociation constant” read 1.75 µM.

A few entries again (study 4):
For `N491V`, “oxyanion analog dissociation constant” read 540 nM.
Under “oxyanion analog dissociation constant”, `S451G` is recorded as 755 nM.
For `F312V`, “oxyanion analog dissociation constant” read 648 nM.
Under “oxyanion analog dissociation constant”, `E34G` is recorded as 740 nM.
For `A362G`, “oxyanion analog dissociation constant” read 626 nM.
For `V91G`, “oxyanion analog dissociation constant” read 1.75 µM.
